Assay results from different studies.
Each numbered part is a random draw from the data of one study; scales do not carry over between parts. Positions count from the first letter of the parent shown.

Sample 1 — method: protein-binding microarray; form: double-stranded DNA, one strand shown; matrix: in vitro; tested at: not given; reading: higher = stronger binding
Target: Protein max, full length (MAX, Homo sapiens, UniProt P61244-2, residues 1-151)
Setting: k-mer, scored over probes, only values ≥0.25
| Sequence | E-score |
| --- | --- |
| CAATGTGA | 0.354 |
| CCATGCAG | 0.359 |
| CACGGGAG | 0.29 |
| AGGCACAT | 0.396 |
| CTGTGCGC | 0.267 |
| ACGGGTGG | 0.254 |
| ACGCGTGA | 0.441 |
| CATCCACG | 0.357 |
| CATGACTA | 0.289 |
| AAGCGTGA | 0.397 |
| CCATATGG | 0.378 |
| AGACGCAT | 0.26 |
| ACCACGTC | 0.258 |
| GCATGACA | 0.38 |
| TCATGCGA | 0.286 |
| CCGTGTAC | 0.252 |
| CGTGCCAA | 0.365 |
| GCATGTCA | 0.389 |

Sample 2 — target: CCNE1, cyclin fold, Cln2 fusion (human); method: yeast growth competition, sequencing; matrix: yeast; setting: weak parent motif; relative to: not given; reading: higher = stronger binding
Starting sequence: RB1 docking peptide (human); PKPLKKLRFDIEG
| Substitution | normalised enrichment score |
| --- | --- |
| PKPLKKLRFDIAG [E12A] | 0.0932 |
| PKPLKKLRFDIED [G13D] | -0.0653 |
| PKPLKKLRFFIEG [D10F] | 0.917 |
| PKPLKKGRFDIEG [L7G] | 0.66 |
| PKPLWKLRFDIEG [K5W] | 0.248 |
| PPPLKKLRFDIEG [K2P] | 0.355 |
| PKPLCKLRFDIEG [K5C] | 0.56 |
| PKPLKKLIFDIEG [R8I] | 0.279 |
| PKPKKKLRFDIEG [L4K] | -0.0737 |
| TKPLKKLRFDIEG [P1T] | 0.0688 |
| PKFLKKLRFDIEG [P3F] | 0.135 |
| LKPLKKLRFDIEG [P1L] | -0.431 |
| PKPLKKLRFDNEG [I11N] | 0.586 |
| PKRLKKLRFDIEG [P3R] | 0.264 |
| GKPLKKLRFDIEG [P1G] | -0.156 |
| PKPLKKMRFDIEG [L7M] | 0.471 |
| PEPLKKLRFDIEG [K2E] | 0.111 |
| PKMLKKLRFDIEG [P3M] | 0.621 |

Sample 3 — method: protein binding microarray; form: double-stranded DNA, one strand shown; matrix: in vitro; tested at: not given; relative to: not given; reading: higher = stronger binding
Target: Histone acetyltransferase KAT6A, winged helix 1, GST fusion (KAT6A, Homo sapiens, UniProt Q92794, residues 1-85)
Setting: 8-mer, flanks averaged, mean of 2 arrays, mostly near background
Residues (chain): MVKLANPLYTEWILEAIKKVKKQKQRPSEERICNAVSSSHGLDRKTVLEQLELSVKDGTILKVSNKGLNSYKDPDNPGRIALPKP
| Sequence | E-score |
| --- | --- |
| TATACTAA | -0.239 |
| CAGTTGAG | -0.264 |
| GATTTCTA | -0.0134 |
| CGATTTCC | -0.0318 |
| ATATACTA | 0.00328 |
| AAGAATCT | -0.0752 |
| CCTGCTCC | -0.00699 |
| AACCCTAA | -0.258 |
| GAACCGGC | 0.315 |
| CGAGTCAG | 0.0566 |
| GTGGCACA | -0.121 |
| CGTAGACG | 0.175 |
| ACGTCCTG | -0.0823 |
| CGCTGCAG | 0.0604 |
| GAGATAAC | -0.109 |

Further values, each from its own experiment
| Molecule | target | assay | test system | conditions | scale | endpoint | value |
| --- | --- | --- | --- | --- | --- | --- | --- |
| PhoQ, residues 284 288 289 292 302 303 STVVAA | PhoP, residues 12 14 15 18 19 AQALL (Escherichia coli, UniProt P23836) | Sort-seq, measured: YFP reporter | E. coli | PhoQ-PhoP variant library, with: 10 µM Mg2+ | relative to: high Mg2+ state, higher = stronger signaling | fold induction | 15 |

For quick reference, copied from above (sample 1):
| Sequence | E-score |
| --- | --- |
| CCATATGG | 0.378 |
| AGACGCAT | 0.26 |
| ACCACGTC | 0.258 |
| GCATGACA | 0.38 |
| TCATGCGA | 0.286 |
| CCGTGTAC | 0.252 |
| CGTGCCAA | 0.365 |
| GCATGTCA | 0.389 |
